# Results from different studies.
# Compare with care: the assays were run in different laboratories.
# Target: Acetylcholinesterase (ACHE, Homo sapiens, UniProt P22303)
# UniProt P22303, sequence (whole entry, looked up): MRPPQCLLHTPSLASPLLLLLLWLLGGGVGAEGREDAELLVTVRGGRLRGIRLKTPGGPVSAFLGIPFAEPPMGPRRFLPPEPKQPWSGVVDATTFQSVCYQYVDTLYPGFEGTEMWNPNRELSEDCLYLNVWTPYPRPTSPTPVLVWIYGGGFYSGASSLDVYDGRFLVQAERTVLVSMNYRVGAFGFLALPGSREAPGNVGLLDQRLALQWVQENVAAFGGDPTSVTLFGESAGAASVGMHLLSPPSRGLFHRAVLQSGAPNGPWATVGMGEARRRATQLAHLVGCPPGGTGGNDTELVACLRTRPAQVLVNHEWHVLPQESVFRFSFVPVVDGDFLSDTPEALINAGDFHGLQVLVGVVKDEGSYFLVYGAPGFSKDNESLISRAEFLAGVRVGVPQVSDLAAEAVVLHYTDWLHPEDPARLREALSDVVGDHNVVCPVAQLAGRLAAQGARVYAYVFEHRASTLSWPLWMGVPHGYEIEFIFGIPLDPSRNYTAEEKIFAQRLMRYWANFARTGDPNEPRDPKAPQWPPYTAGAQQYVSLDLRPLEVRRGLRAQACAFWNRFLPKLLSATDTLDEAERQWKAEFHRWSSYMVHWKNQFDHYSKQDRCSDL
# Read-out: enzyme activity
# Action: inhibitor
SMILES,method,cell line,concentration,setting,inhibition
Cc1ccccc1C=Cc1nnc([C@H]2OCC[C@H]2Cn2ccnc2)o1,Ellman,,10 µM,,2.8%
CCCCNC(=O)c1ccc2nc(CC)c(N(C)Cc3ccc(OC)cc3)n2c1,,SH-SY5Y,IC50 concentration,,61%
COc1ccc(C#CC2=C[C@H]3C[C@@]4(OC(=O)C=C24)[C@H]2CC[C@H](C(OC)OC)N32)cc1,,,10 µM,,0%
COc1ncc2nc(C)n(Cc3ncc(S(N)(=O)=O)cc3F)c2c1-c1ccccc1,,,10 µM,safety panel,-3.72%
CCC(O)CN1CCN(C(=O)Cc2cn3ccccc3n2)CC1 (stereo not drawn),Ellman,,10 µM,,15.1%
O=C(Nc1cccnc1)c1cccc(C2(CNCc3ccc(F)c(F)c3)CC2)c1,,SH-SY5Y,IC50 concentration,,28%
Cc1cc(-c2ccc3ccccc3c2)nnc1NCCN1CCN(C)CC1,,,10000 nM,,33%
Cc1ccc2cc(C(=O)N3CCCC3Cn3ccnc3)ccc2n1 (stereo not drawn),Ellman,,10 µM,,21%
N[C@H](C(=O)N1CCCC1)C1CCN(c2nccc3c(-c4ncc(Cl)cc4Cl)cccc23)CC1,,,10 µM,,5%
COc1ccc(F)cc1S(=O)(=O)Nc1cnc2c(c1)C(=O)NCCO2,,,10 µM,,1%
Cc1cc(Nc2nc(C[C@@]3(C(=O)O)CCN(Cc4cccc(Cl)c4F)[C@H](C)C3)cc(C)c2F)[nH]n1,,,10 µM,,20.8%
CC(NC(=O)c1ccccc1F)c1nnc2ccccn12 (stereo not drawn),Ellman,,10 µM,,7.6%

# Excerpt of the above:
SMILES,method,cell line,concentration,setting,inhibition
Cc1ccc2cc(C(=O)N3CCCC3Cn3ccnc3)ccc2n1 (stereo not drawn),Ellman,,10 µM,,21%
N[C@H](C(=O)N1CCCC1)C1CCN(c2nccc3c(-c4ncc(Cl)cc4Cl)cccc23)CC1,,,10 µM,,5%
